Measured values from different studies.
Protocols differ between the studies behind these lines. Numbers after ± are the reported error.
Urease: Urease (Canavalia ensiformis, UniProt P07374)
gyrA/gyrB: DNA gyrase (gyrA/gyrB, Escherichia coli, UniProt P0AES4+P0AES6)
Integrin alpha-V/beta-3: Integrin alpha-V/beta-3 (Homo sapiens, UniProt P05106+P06756)
gag-pol integrase: Gag-Pol polyprotein, integrase (gag-pol, Human immunodeficiency virus 1, UniProt P12497)

The IC50 of `O=C(CCCCCCC(=O)Nc1cccc(N=Nc2ccccc2)c1)NO` is reported as 0.014 ± 0.006 µM (HDAC1 (Homo sapiens, UniProt Q13547); enzyme activity, inhibitor; trans isomer).
With `Cc1cc(C)c(C(=O)N(C)Cc2nnc[nH]2)[nH]1` the IC50 was 14.3 µM (Urease; enzyme activity, inhibitor, absorbance).
For `CC1C(=NOCc2cc(-c3ccc(Cl)cc3)no2)C(C)C(c2ccc(Cl)cc2)OC1c1ccc(Cl)cc1` (centres unmarked), the IC50 was 10.9 µM (gyrA/gyrB).
`O=P(O)(O)CNCc1ccccc1` has an IC50 of > 1000 µM (Urease; inhibitor; pH 7).
For `C[C@H](CCC(=O)N[C@H](CC(c1c[nH]c2ccccc12)c1c[nH]c2ccccc12)C(=O)O)[C@H]1CC[C@H]2[C@@H]3CC[C@@H]4C[C@H](O)CC[C@]4(C)[C@H]3CC[C@]12C`, the IC50 was 11.3 ± 0.4 µM (ST6GAL1 (Homo sapiens, UniProt P15907); enzyme activity, UPLC).
With `COc1ccc(CCNc2cc(-c3ccccc3)nc3ncnn23)cc1` the IC50 was > 50 µM (Cytochrome P450 2D6 (CYP2D6, Homo sapiens, UniProt P10635)).
The IC50 of `N#C[C@@]1(c2ccc3c(N)ncnn23)O[C@H](COP(=O)(O)OP(=O)(O)OP(=O)(O)O)[C@@H](O)[C@H]1O` is reported as > 200 µM (DNA polymerase beta (POLB, Homo sapiens, UniProt P06746); enzyme activity, inhibitor).
With `N[C@H](C(=O)N1CCCC1)C1CCN(c2nccc3c(-c4ncc(Cl)cc4Cl)cccc23)CC1` the IC50 was 0.109 µM (PADI1 (Homo sapiens, UniProt Q9ULC6); enzyme activity, inhibitor, absorbance).
`CN1CCc2cc(O)cc3c2[C@H]1Cc1ccc(O)c(O)c1-3` gave an IC50 of 5.17 µM (Carbamate kinase (Giardia intestinalis, UniProt A8BB85); enzyme activity, ATP luminescence).
For `N=C(N)NCCC[C@@H]1NC(=O)[C@H](CCCCNC(=O)CC[C@H](NC(=O)CCOCCOCCOCCOCCNC(=O)CC[C@H](NC(=O)CN2CCN(CC(=O)O)CCN(CC(=O)O)CCN(CC(=O)O)CC2)C(=O)NCCOCCOCCOCCOCCC(=O)N[C@@H](CCC(=O)NCCCC[C@@H]2NC(=O)[C@@H](Cc3ccccc3)NC(=O)[C@H](CC(=O)O)NC(=O)CNC(=O)[C@H](CCCNC(=N)N)NC2=O)C(=O)NCCCC[C@@H]2NC(=O)[C@@H](Cc3ccccc3)NC(=O)[C@H](CC(=O)O)NC(=O)CNC(=O)[C@H](CCCNC(=N)N)NC2=O)C(=O)NCCCC[C@@H]2NC(=O)[C@@H](Cc3ccccc3)NC(=O)[C@H](CC(=O)O)NC(=O)CNC(=O)[C@H](CCCNC(=N)N)NC2=O)NC(=O)[C@@H](Cc2ccccc2)NC(=O)[C@H](CC(=O)O)NC(=O)CNC1=O`, the IC50 was 0.0005 µM (Integrin alpha-V/beta-3; ligand displacement, radioligand).
`C/C=C1/CN2CCc3c([nH]c4ccccc34)[C@@H]2C[C@@H]1/C(=C\OC)C(=O)OC` gave an IC50 of 94.5 µM (HTR4 (Cavia porcellus, UniProt O70528); ligand displacement, radioligand; cell membranes).
With `O=C(C[P+]([Au-][Cl])(c1ccccc1)c1ccccc1)[O][Ti+2][O]C(=O)C[P+]([Au-][Cl])(c1ccccc1)c1ccccc1.c1cc[cH-]c1.c1cc[cH-]c1` the IC50 was 0.091 µM (MAPKAPK3 (Homo sapiens, UniProt Q16644); enzyme activity, inhibitor, radiometric).
`CCC(CC)OC1C=C(C(=O)OC(C)OC(=O)C(N)C(C)CC)CC(NC(=N)N)C1NC(C)=O` (mixture of isomers) gave an IC50 of 450 ± 180 µM (SLC15A1 (Homo sapiens, UniProt P46059); [3H]Gly-Sar uptake; Caco-2; 30 min, pH 6.0, with: Gly-Sar 10 µM).
The IC50 of `CSc1ccc2c(c1)c(CCN)c(C)n2Cc1ccc(Cl)cc1` is reported as 167 µM (Phosphatidylinositol 3,4,5-trisphosphate 5-phosphatase 1, Ptase-C2 domains (INPP5D, Homo sapiens, UniProt Q92835); enzyme activity, inhibitor).
`CSCC[C@H](NC(=O)[C@@H](N)CCCNC(=N)N)C(=O)N[C@@H](Cc1c[nH]cn1)C(=O)N[C@@H](CC(N)=O)C(=O)N[C@@H](CC(=O)O)C(=O)N[C@H](C(=O)O)[C@@H](C)O` gave an IC50 of > 100 µM (APOBEC3G (Homo sapiens, UniProt Q9HC16)).
For `C=Cc1cc(OC)c2c(c1)c(=O)oc1c2cc(OC)c2c(O)ccc([C@@H]3O[C@H](C)[C@H](O)[C@@](C)(O)[C@H]3O)c21`, the IC50 was 8.46 µM (Bifunctional protein GlmU (Staphylococcus aureus, UniProt Q5HIH6); enzyme activity, inhibitor, absorbance).
`N#Cc1cn([C@@H]2O[C@H](CSCC[C@H](N)C(=O)O)[C@@H](O)[C@H]2O)c2ncnc(N)c12` gave an IC50 of 0.3 µM (PRMT7 (Homo sapiens, UniProt Q9NVM4); enzyme activity, inhibitor, radiometric).
With `CC(=O)OCc1cc(-c2nc3ccccc3n(-c3ccc([N+](=O)[O-])cc3[N+](=O)[O-])c2=O)nn1-c1ccccc1` the IC50 was 0.869 µM (gyrA/gyrB; enzyme activity, inhibitor).
With `COc1c(OCCOCCOCCOCCOc2cccc(C(=O)C3CCN(CCc4ccc(F)cc4)CC3)c2OC)cccc1C(=O)C1CCN(CCc2ccc(F)cc2)CC1` the IC50 was 0.178 µM (HTR2A (Homo sapiens, UniProt P28223); phosphorylation in cells, antagonist).
For `Nc1nc2c(c(=O)[nH]1)[n+](Cc1cccc(S(=O)(=O)F)c1)cn2[C@@H]1O[C@H](COP(=O)(O)O)[C@@H](O)[C@H]1O`, the IC50 was > 50 µM (NT5C3B (Homo sapiens, UniProt Q969T7); enzyme activity, inhibitor, absorbance; pH 7.5).
`CC(=O)N[C@@H](Cc1ccccc1)C(=O)N[C@@H](CC(C)C)C(=O)N[C@H](C(=O)N[C@@H](CC(=O)O)C(=O)CCl)[C@@H](C)O` has an IC50 of 82.8 µM (Caspase-10 (CASP10, Homo sapiens, UniProt Q92851); enzyme activity, inhibitor, fluorescence).
With `O=C1C(O)=C(Nc2ccccc2Cl)C(=O)c2ccccc21` the IC50 was 0.68 µM (DHODH (Homo sapiens, UniProt Q02127); enzyme activity, inhibitor, absorbance).
For `O=C1c2c(ccc(O)c2O)CN1Cc1cccc(Cl)c1F`, the IC50 was 158 ± 22.3 µM (gag-pol integrase; 3'-processing, inhibitor, gel-based; recombinant wild-type integrase).
With `CCCC[C@H](NC(=O)[C@H](C)NC(=O)[C@H](CCC(=O)O)NC(=O)[C@H](Cc1ccccc1)NC[C@H](Cc1ccccc1)NC(=O)[C@@H](NC(=O)[C@@H](N)CCCNC(=N)N)C(C)C)C(=O)O` the IC50 was 0.031 ± 0.0146 µM (Gag-Pol polyprotein, protease (gag-pol, Human immunodeficiency virus 1, UniProt P12497); enzyme activity, inhibitor, FRET; NL4-3 wild type).
The IC50 of `O=C(N1CCOCC1)N1CCN(c2ccc(Cl)cc2)CC1` is reported as 0.068 µM (AKR1C3 (Homo sapiens, UniProt P42330); diaphorase activity; with: PQ).
The IC50 of `CC(C)[C@H](NC(=O)c1ccc(CCc2nc3c(c(=O)[nH]2)CCC3)cc1)C(=O)NC1COC1` is reported as > 5 µM (MMP8 (Homo sapiens, UniProt P22894); enzyme activity, inhibitor).
`Nc1ncnc2c1ncn2[C@@H]1O[C@H](CSCCNC(=O)NCCc2ccccc2)[C@@H](O)[C@H]1O` gave an IC50 of > 50 µM (RNA demethylase ALKBH5 (Homo sapiens, UniProt Q6P6C2); RNA demethylase activity, inhibitor).
For `CN(C)c1ccc(C(=O)NCc2ccc(CNC(=O)CS)cc2)cc1`, the IC50 was > 30 µM (HDAC10 (Homo sapiens, UniProt Q969S8); enzyme activity, inhibitor).
With `Cc1nc([C@H](NC(=O)c2ccc(-c3ccc(Cl)cc3)[nH]2)[C@@H]2CCCCN2)sc1CO` the IC50 was 43.4 µM (Gag-Pol polyprotein, reverse transcriptase (gag-pol, Human immunodeficiency virus 1, UniProt P12497)).
The IC50 of `O=C1c2c(ccc(O)c2O)CN1Cc1ccc(F)c(Cl)c1` is reported as 83.9 ± 6.8 µM (gag-pol integrase; 3'-processing, inhibitor, gel-based; recombinant wild-type integrase).
With `CC(=O)CCC1C(=O)NC(C(C)C)C(=O)NC(Cc2cccc(O)c2)C(=O)N2CCCC(N2)C(=O)OC(C(C)=CC=CC(=O)N2CCCCO2)CC=CC=CC(O)C(C)C1O` (centres unmarked) the IC50 was 29.3 µM (ABCB11 (Homo sapiens, UniProt O95342); efflux transport, inhibitor; membrane vesicles; with: taurocholate 2 µM).
The IC50 of `CCOC(=O)C/C(C)=N/NC(=O)c1nc2ccccc2n(C)c1=O` is reported as 2.73 µM (PTGS2 (Ovis aries, UniProt P79208); enzyme activity, inhibitor, ELISA).
`CC(C)=CCC[C@](C)(O[C@@H]1O[C@H](CO)[C@@H](O)[C@H](O)[C@H]1O)[C@H]1CC[C@]2(C)[C@@H]1[C@H](O)C[C@@H]1[C@@]3(C)CC[C@H](O)C(C)(C)[C@@H]3CC[C@]12C` gave an IC50 of 52.1 µM (GABRR1 (Homo sapiens, UniProt P24046); ion current, two-electrode voltage clamp; oocytes).
The IC50 of `CC[C@@H]1C(=O)N(C)c2cnc(Nc3ccc(C(=O)NCCCC[C@H](NC(=O)[C@@H](NC(=O)[C@H](CO)NC(=O)[C@H](Cc4cncn4CCCCCCCCc4ccccc4)NC(=O)[C@H](CC(C)C)NC(=O)[C@@H]4CCCN4C(C)=O)[C@@H](C)OP(=O)(O)O)C(N)=O)cc3OC)nc2N1C1CCCC1` is reported as 0.0072 µM (PLK2 (Homo sapiens, UniProt Q9NYY3); enzyme activity, inhibitor).
The IC50 of `CC(C)C[C@H](NC(=O)[C@H](CC(=O)O)NC(=O)CNC(=O)[C@H](CCCNC(=N)N)NC(=O)[C@H](CC(C)C)NC(=O)[C@H](CC(N)=O)NC(=O)[C@@H]1CCCN1C(=O)[C@@H](NC(=O)[C@H](C)NC(=O)[C@H](CC(N)=O)NC(=O)CCOCCOCCOCCOCCOCCOCCOCCOCCOCCOCCOCCOCCOCCOCCOCCOCCOCCOCCOCCOCCOCCOCCOCCOCCOCCOCCOCCOCCNC(=O)CN1CCN(CC(=O)O)CCN(CC(=O)O)CC1)C(C)C)C(=O)N[C@@H](CCC(N)=O)C(=O)N[C@H](C(=O)N[C@@H](CC(C)C)C(=O)N[C@@H](C)C(=O)N[C@@H](CCC(N)=O)C(=O)N[C@@H](CCCNC(=N)N)C(=O)N[C@H](C(=O)N[C@@H](C)C(=O)N[C@@H](CCCNC(=N)N)C(=O)N[C@H](C(=O)NCCOCCOCCOCCOCCOCCOCCOCCOCCOCCOCCOCCOCCOCCOCCOCCOCCOCCOCCOCCOCCOCCOCCOCCOCCOCCOCCOCCOCCC(N)=O)[C@@H](C)O)C(C)C)C(C)C` is reported as > 10 µM (Integrin alpha-V/beta-3; binding, competitive ELISA; no binding up to 10 µM, with: biotinylated vitronectin).
`COc1ccc(F)cc1S(=O)(=O)Nc1cnc2c(c1)C(=O)NCCO2` gave an IC50 of 0.013 µM (Alkaline phosphatase, tissue-nonspecific isozyme (Mus musculus, UniProt P09242); enzyme activity, inhibitor).
`CC[C@H](C)[C@H](NC(C)=O)C(=O)N[C@@H](C)C(=O)N[C@@H](CCC(=O)O)C(=O)N[C@@H](CCC(N)=O)C(=O)N[C@@H](CC(C)C)C(=O)N[C@@H](CCCNC(=N)N)C(=O)N[C@@H](CCCNC(=N)N)C(=O)N[C@H](C(=O)NCC(=O)N[C@@H](CC(=O)O)C(=O)N[C@@H](CCCNC(=N)N)C(=O)N[C@@H](Cc1ccc(O)cc1)C(N)=O)[C@@H](C)CC` gave an IC50 of 0.21 µM (MCL1 (Homo sapiens, UniProt Q07820); BIM BH3 peptide binding, inhibitor, DELFIA displacement; 2 h preincubation).
`N=C(N)NCCC[C@H](N)C(=O)N1CCC[C@H]1C(=O)N1CCC[C@H]1C(=O)NCC(=O)N[C@@H](Cc1ccccc1)C(=O)N[C@@H](CO)C(=O)N1CCC[C@H]1C(=O)N[C@@H](Cc1ccccc1)C(=O)N[C@@H](CCCCN)C(=O)O` gave an IC50 of 0.0016 µM (BDKRB2 (Homo sapiens, UniProt P30411)).

Some of these lines once more:
The IC50 of `O=C(N1CCOCC1)N1CCN(c2ccc(Cl)cc2)CC1` is reported as 0.068 µM (AKR1C3 (Homo sapiens, UniProt P42330); diaphorase activity; with: PQ).
With `COc1c(OCCOCCOCCOCCOc2cccc(C(=O)C3CCN(CCc4ccc(F)cc4)CC3)c2OC)cccc1C(=O)C1CCN(CCc2ccc(F)cc2)CC1` the IC50 was 0.178 µM (HTR2A (Homo sapiens, UniProt P28223); phosphorylation in cells, antagonist).
`CCC(CC)OC1C=C(C(=O)OC(C)OC(=O)C(N)C(C)CC)CC(NC(=N)N)C1NC(C)=O` (mixture of isomers) gave an IC50 of 450 ± 180 µM (SLC15A1 (Homo sapiens, UniProt P46059); [3H]Gly-Sar uptake; Caco-2; 30 min, pH 6.0, with: Gly-Sar 10 µM).
With `CCCC[C@H](NC(=O)[C@H](C)NC(=O)[C@H](CCC(=O)O)NC(=O)[C@H](Cc1ccccc1)NC[C@H](Cc1ccccc1)NC(=O)[C@@H](NC(=O)[C@@H](N)CCCNC(=N)N)C(C)C)C(=O)O` the IC50 was 0.031 ± 0.0146 µM (Gag-Pol polyprotein, protease (gag-pol, Human immunodeficiency virus 1, UniProt P12497); enzyme activity, inhibitor, FRET; NL4-3 wild type).
